Assay results collected from several papers.
Each numbered part is a random draw from the data of one study; scales do not carry over between parts. Changes are numbered by the printed parent chain.

Set 1
Target: FOSL1, bZIP domain (human)
Technique: DHFR protein complementation
Sample: yeast
Setting: single substitutions, most at no-binding floor
Relative to: wild-type JUN-FOS pair
Direction: higher = stronger binding
Starting sequence: JUN, bZIP domain (human); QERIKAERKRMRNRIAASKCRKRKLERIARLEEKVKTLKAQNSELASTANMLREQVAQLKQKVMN; partner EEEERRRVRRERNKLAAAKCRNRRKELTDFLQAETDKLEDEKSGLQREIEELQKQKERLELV
`S47K` has a binding fitness of -0.133 natural log.
The binding fitness of `V35N` is reported as -0.735 natural log.
With `M51D` the binding fitness was -0.337 natural log.
The binding fitness of `L45W` is reported as -1.46 natural log.
For `N42Y`, the binding fitness was -1.18 natural log.
With `E33W` the binding fitness was -0.69 natural log.
For `Q55F`, the binding fitness was -1.11 natural log.
`E33Q` has a binding fitness of -0.513 natural log.
With `Q41L` the binding fitness was -0.597 natural log.
For `N42M`, the binding fitness was -0.812 natural log.
For `V35C`, the binding fitness was -0.549 natural log.
The binding fitness of `K36W` is reported as -0.787 natural log.
With `L45G` the binding fitness was -1.3 natural log.
For `A46G`, the binding fitness was -0.887 natural log.
For `L31V`, the binding fitness was -1.27 natural log.
The binding fitness of `T48V` is reported as -0.385 natural log.
The binding fitness of `A40T` is reported as -0.324 natural log.
For `T37I`, the binding fitness was -0.385 natural log.

Set 2
Target: Centromere-binding protein 1, full length, N-terminal tag (CBF1, Saccharomyces cerevisiae, UniProt P17106, residues 1-351)
Chain of UniProt P17106 (whole entry, looked up): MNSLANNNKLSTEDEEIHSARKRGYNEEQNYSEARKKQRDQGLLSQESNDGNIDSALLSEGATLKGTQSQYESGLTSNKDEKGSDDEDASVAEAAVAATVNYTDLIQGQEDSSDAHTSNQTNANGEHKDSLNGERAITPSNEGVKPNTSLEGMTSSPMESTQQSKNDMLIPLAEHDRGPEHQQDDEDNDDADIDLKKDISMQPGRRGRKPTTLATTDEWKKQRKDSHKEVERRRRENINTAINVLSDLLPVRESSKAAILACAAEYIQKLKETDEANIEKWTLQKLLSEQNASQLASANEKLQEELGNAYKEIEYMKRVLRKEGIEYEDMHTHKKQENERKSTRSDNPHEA
Technique: protein-binding microarray
Form: double-stranded DNA, one strand shown
Sample: in vitro
Concentration: 0.8 µM
Setting: whole 60-bp probe, no competitor
Direction: higher = stronger binding
All sequences stand within: … GTCTTGATTCGCTTGACGCTGCTG
`GAATTAATGTTGTGTTCAGTTGATTGTTATTATTAG` gave a fluorescence intensity of 525 a.u.
The fluorescence intensity of `TGTACGAAGCTATATCACCATCATATAGTAGTTAGG` is reported as 527 a.u.
For `CTATGTCGGTCACGGTCCACCACCAATTGTGGCTTC`, the fluorescence intensity was 1580 a.u.
`GAAAAAAGTTTTCGCCATCAGACGACTTATATGTAG` gave a fluorescence intensity of 530 a.u.
With `CTACCATAACTGCACCACCAATATTTTTCTTGCTTC` the fluorescence intensity was 537 a.u.
For `CTATCGATCCCCCTCATCGTGATGTAGTCAACCTTC`, the fluorescence intensity was 520 a.u.
`CTATGATCTCTTAATCAGGAGGCGATATATACCTTC` gave a fluorescence intensity of 563 a.u.
`TGTACGAAGCTATACCACGACATTATAGTAGTTAGG` gave a fluorescence intensity of 535 a.u.
With `TGTACGAAGCTATGTGGTGTTCTTATAGTAGTTAGG` the fluorescence intensity was 533 a.u.
For `CTAATGTGCTAGCGCCACGCGATGGCTGGTTTGTTC`, the fluorescence intensity was 514 a.u.
For `GAAGTGAGGTTAACATTGGTGGTGGTCTGACATTAG`, the fluorescence intensity was 628 a.u.
`CTATGGTTTCAGTCTGTCATGAGGAATAAGGGCTTC` has a fluorescence intensity of 558 a.u.
`GAAAATTTTGAAATCCACATGACCTTGAATTAATAG` gave a fluorescence intensity of 2460 a.u.
For `CTAAGAGATAATACGCACGTGATGAAATTCATTTTC`, the fluorescence intensity was 10700 a.u.
`CTATGTTAAGATTACATCAGCACTAACAAACAATTC` has a fluorescence intensity of 528 a.u.
`GAATCTTATTTTTTTAACACCACCTCCTGAAAGTAG` gave a fluorescence intensity of 533 a.u.
For `CTATTTCATTAAGAGCACGTTTGAGCTTATTAGTTC`, the fluorescence intensity was 678 a.u.

Set 3
Target: CCNB3, cyclin fold, Cln2 fusion (human)
Technique: yeast growth competition, sequencing
Sample: yeast
Setting: strong parent motif
Relative to: not given
Direction: higher = stronger binding
Starting sequence: SCAPER docking peptide (human); SNARRSLNFGGST; partner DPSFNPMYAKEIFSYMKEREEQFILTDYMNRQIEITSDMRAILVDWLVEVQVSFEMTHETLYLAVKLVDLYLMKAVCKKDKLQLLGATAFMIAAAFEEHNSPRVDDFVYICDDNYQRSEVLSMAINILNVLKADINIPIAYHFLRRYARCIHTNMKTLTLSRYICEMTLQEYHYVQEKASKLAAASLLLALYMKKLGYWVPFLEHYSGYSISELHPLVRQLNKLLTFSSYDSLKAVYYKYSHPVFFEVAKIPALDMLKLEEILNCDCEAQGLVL
Under “normalised enrichment score”, `N2Y` is recorded as 1.4.
Under “normalised enrichment score”, `N2M` is recorded as 0.958.
`A3T`: “normalised enrichment score” 0.665.
For `F9H`, “normalised enrichment score” read 0.235.
For `A3L`, “normalised enrichment score” read 0.461.
Under “normalised enrichment score”, `A3W` is recorded as 0.349.
`S12T` — result for “normalised enrichment score”: 1.38.
`L7P`: “normalised enrichment score” 0.0556.
For `G11N`, “normalised enrichment score” read 1.46.
`S12W`: “normalised enrichment score” 1.12.
Under “normalised enrichment score”, `R5S` is recorded as 0.43.
`G11A` — result for “normalised enrichment score”: 1.25.
`L7F` — result for “normalised enrichment score”: 0.154.
Under “normalised enrichment score”, `N2V` is recorded as 1.25.
Under “normalised enrichment score”, `G10M` is recorded as 0.798.
For `G10S`, “normalised enrichment score” read 0.76.
For `F9T`, “normalised enrichment score” read 0.158.
Under “normalised enrichment score”, `S12C` is recorded as 1.41.

Set 4
Target: ABI1, truncated, D143A, DHFR fusion (Arabidopsis thaliana)
Technique: DHFR PCA, deep sequencing
Sample: yeast
Setting: methotrexate growth selection, single substitutions
Added: (+)-ABA 0.0091 µM
Relative to: wild-type fitted maximum
Direction: higher = stronger binding
Starting sequence: PYL1, truncated, DHFR fusion (Arabidopsis thaliana); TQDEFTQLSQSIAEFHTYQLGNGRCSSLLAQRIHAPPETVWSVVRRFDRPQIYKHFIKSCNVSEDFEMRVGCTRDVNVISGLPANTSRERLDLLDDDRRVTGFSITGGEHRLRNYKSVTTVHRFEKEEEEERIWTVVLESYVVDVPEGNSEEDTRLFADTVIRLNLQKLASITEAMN
Under “relative binding score”, `V161K` is recorded as 4.67%.
For `E147C`, “relative binding score” read -0.0164%.
`H55K` — result for “relative binding score”: 12.3%.
`S140W`: “relative binding score” 6.19%.
Under “relative binding score”, `E125C` is recorded as 34.8%.
Under “relative binding score”, `N85D` is recorded as 13.9%.
`I105Y` — result for “relative binding score”: -1.97%.
`V142Q`: “relative binding score” 10.7%.
`L112V` — result for “relative binding score”: 2.67%.
For `L28K`, “relative binding score” read -3.49%.
`V70M`: “relative binding score” 3.94%.
For `G108H`, “relative binding score” read -5.88%.
For `T86K`, “relative binding score” read 10.9%.
`G71N`: “relative binding score” 1.03%.
For `G21A`, “relative binding score” read 27.1%.
`V40K` — result for “relative binding score”: -0.395%.
`Y141C`: “relative binding score” 5.3%.
Under “relative binding score”, `P37C` is recorded as -1.58%.
`R163Y` — result for “relative binding score”: -9.67%.
`G102D`: “relative binding score” 7.72%.
`H122W` — result for “relative binding score”: 1.41%.
For `L82F`, “relative binding score” read 78%.
`V44F`: “relative binding score” -3.19%.

Set 5
Target: Ras GTPase-activating protein-binding protein 1, RRM domain (G3BP1, Homo sapiens, UniProt Q13283)
Chain of UniProt Q13283 (whole entry, looked up): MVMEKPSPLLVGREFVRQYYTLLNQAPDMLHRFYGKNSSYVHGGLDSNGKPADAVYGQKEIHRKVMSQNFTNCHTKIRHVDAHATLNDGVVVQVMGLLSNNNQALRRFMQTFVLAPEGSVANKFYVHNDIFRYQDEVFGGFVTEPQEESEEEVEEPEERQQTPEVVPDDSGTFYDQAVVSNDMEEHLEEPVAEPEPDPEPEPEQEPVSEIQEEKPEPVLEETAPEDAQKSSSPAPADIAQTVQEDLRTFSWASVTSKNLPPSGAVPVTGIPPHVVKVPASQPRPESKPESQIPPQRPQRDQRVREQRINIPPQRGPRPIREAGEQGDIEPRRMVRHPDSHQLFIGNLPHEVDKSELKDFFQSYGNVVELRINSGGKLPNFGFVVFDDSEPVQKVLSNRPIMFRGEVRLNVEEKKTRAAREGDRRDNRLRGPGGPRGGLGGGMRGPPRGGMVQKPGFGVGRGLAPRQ
Technique: RNA Bind-n-Seq
Form: RNA
Sample: in vitro
Concentration: 1 µM
Setting: whole 134-nt RNA, ends assumed
Added: 150 mM KCl
Relative to: input library
Direction: higher = stronger binding
All sequences stand within: GGGAGUUCUACAGUCCGACGAUC … UGGAAUUCUCGGGUGUCAAGG
The log2 enrichment of `CAAGUCCUGUGCUACACAUCGUAUGUACCGAAUCGGGGCCGGGGCCGGGCCGGGGAAAGUAUUAUGUUACGCCGUUCGGAUCUGCACUUC` is reported as -1.11.
`UCAAGUCCUGUGCUACACAUCGUAUGUACCGAAUCGGGUUUGGUUUGGUUUGGGAAAGUAUUAUGUUACGCCGUUCGGAUCUGCACUUCC` has a log2 enrichment of -0.323.
`CCUGUGCUACACAUCGUAUGUACCGAAUCGGUUUUUUUGGGUUUUUUUGGUUUUUUUGGGGAAAGUAUUAUGUUACGCCGUUCGGAUCUG` has a log2 enrichment of -0.36.
For `CUCAAGUCCUGUGCUACACAUCGUAUGUACCGAAUCGGUUUUUUUGGUGGUGGAAAGUAUUAUGUUACGCCGUUCGGAUCUGCACUUCCA`, the log2 enrichment was -0.291.
The log2 enrichment of `UCCUGUGCUACACAUCGUAUGUACCGAAUCGGGGAAAAAGGGGUUUGGGGUUUUUGGGGAAAGUAUUAUGUUACGCCGUUCGGAUCUGCA` is reported as 1.35.
`UCCUGUGCUACACAUCGUAUGUACCGAAUCGGGAAAGGGAAAAAAAGGGAAAAAAAGGGAAAGUAUUAUGUUACGCCGUUCGGAUCUGCA` gave a log2 enrichment of 0.116.
The log2 enrichment of `UGGGAGGUGGAUUUUGUUUAUUUUUUUAGCUCAUUUCCAGGGGUGGGAAUUUUUUUUUAACAUGUGUCAUGAAUAAAGUUGUUUUUGAAA` is reported as 1.69.
`CAAGUCCUGUGCUACACAUCGUAUGUACCGAAUCGGAAAGGGGAAAGGGGAAAGGAAAGUAUUAUGUUACGCCGUUCGGAUCUGCACUUC` gave a log2 enrichment of -0.0393.
The log2 enrichment of `GCAGGAAGUAAAAACAAAUGGAAAUGCUUCGGAUAGUGGCAGGGGUAGGGGUUGCUAAGGAAAGGGUGGGAUGGGAGUGGGUAAAGAGUU` is reported as 0.839.

Excerpt of the above (set 5):
`UCAAGUCCUGUGCUACACAUCGUAUGUACCGAAUCGGGUUUGGUUUGGUUUGGGAAAGUAUUAUGUUACGCCGUUCGGAUCUGCACUUCC` has a log2 enrichment of -0.323.
The log2 enrichment of `CAAGUCCUGUGCUACACAUCGUAUGUACCGAAUCGGGGCCGGGGCCGGGCCGGGGAAAGUAUUAUGUUACGCCGUUCGGAUCUGCACUUC` is reported as -1.11.
For `CUCAAGUCCUGUGCUACACAUCGUAUGUACCGAAUCGGUUUUUUUGGUGGUGGAAAGUAUUAUGUUACGCCGUUCGGAUCUGCACUUCCA`, the log2 enrichment was -0.291.
The log2 enrichment of `GCAGGAAGUAAAAACAAAUGGAAAUGCUUCGGAUAGUGGCAGGGGUAGGGGUUGCUAAGGAAAGGGUGGGAUGGGAGUGGGUAAAGAGUU` is reported as 0.839.
